Results pooled from the literature.
Protocols differ between the studies behind these lines. Values joined by “and” are separate records of one study, mostly repeats; a detail may differ. Numbers after ± are the reported error.

CN[C@@H]1C[C@H]2O[C@@](C)([C@@H]1OC)n1c3ccccc3c3c4c(c5c6ccccc6n2c5c31)C(=O)NC4 — mRNA fold change (Caco-2; qRT-PCR, refers to: Bax; IC50; relative to: untreated): 7.65
O=C1CCP(c2ccccc2)CC1 — selectivity index (HCT-116; MTT; 72 h; relative to: IC50 HaCaT over IC50 HCT-116): 0.7
COc1ccc2c(c1)[nH]c1c(C)nccc12 — DNA methylation (DU-145; bisulfite pyrosequencing, refers to: RASSF1A promoter CpG site 14; 10 µM, 16 h): 90.3%
COc1cc(CCC[P+](c2ccccc2)(c2ccccc2)c2ccccc2)c(OC)c2c1OCO2.[I-] — TGI (SN12C; SRB): -4.98 log M
Nc1ncnc2c1ncn2[C@@H]1O[C@@H]2COP(=O)(O)O[C@H]3[C@@H](O)[C@H](n4cnc5c(=O)[nH]cnc54)O[C@@H]3COP(=O)(O)O[C@H]2[C@H]1O — pathway fold enrichment (HFF-1; RNA sequencing, refers to: Serine biosynthesis; downregulated pathway; relative to: Zika virus alone): 23.8
Cn1cncc1C1=CN(c2ncnc3[nH]cnc23)CCS1 — CC50 (M14; melanoma cell line): > 200000 nM
CCOC(=O)c1ccc(N2C(N)=C(C#N)C3(C(=O)Nc4ccccc43)C(C#N)=C2O)cc1 (centres unmarked) — mRNA fold change (Caco-2; qRT-PCR, refers to: Bax; IC50; relative to: untreated): 7.51
Cc1cc(C(C)(C)c2ccc(O)c(C)c2)ccc1O — inhibition (HepG2 spheroids; cell proliferation, flow cytometry, refers to: Ki67; 10 µM, 96 h; relative to: solvent control): 7.32%
C/C=C(/C)C(=O)O[C@H]1C(C)=C2[C@H]([C@@H]1OC(=O)CCCCCCC)[C@@](C)(OC(C)=O)C[C@H](OC(=O)CCC)[C@@]1(O)[C@H]2OC(=O)[C@@]1(C)O — normalized enrichment score (HEK-293T; RNA-seq GSEA, refers to: Hallmark DNA repair; 500 nM, 6 h; direction not given): 1.1
Cn1nccc1Nc1nccc(-c2ccn([C@H](CO)c3ccc(Cl)c(F)c3)c(=O)c2)n1 — PI-positive cells (HCT116; IncuCyte; concentration not given, 20 (unit not given)): 3.67 count and 5.33 count and 4.58 count
Nc1nc2nc[nH]c2c(=S)[nH]1 — surviving fraction (HCT-116 3-6; clonogenic; 0.625 µM, 10 days): 0.861
N.N.[Cl][Pt][Cl] — EC50 (A-375; viability, MTT; 72 h): 8130 ± 3180 nM
CN1C(=O)[C@@]23C[C@]4([C@]56C[C@@]78SS[C@@](CO)(C(=O)N7[C@H]5Nc5ccccc56)N(C)C8=O)c5ccccc5N[C@@H]4N2C(=O)[C@]1(CO)SS3 — viability (OCI-Ly1; 0.1 µM, 120 h): 1.07%
CN(C)C(=O)c1cc2cnc(Nc3ccc(C(=O)NCCCCCCOc4cccc5c4C(=O)N(C4CCC(=O)NC4=O)C5=O)cc3)nc2n1C1CCCC1 (centres unmarked) — mRNA level (SK-N-BE(2) and IMR-32; RT-qPCR, refers to: MYCN; concentration not given, 24 h): no effect
Cc1cnc2ccc3c(nc(N)n3C)c2n1 — plating efficiency (BALB/c 3T3; colony formation; 100 µM): 44%
CCN(CC)c1ccc(C=NNC(=O)CSc2nc3ccccc3c(=O)n2Cc2ccc(S(N)(=O)=O)cc2)c(O)c1 — CC50 (OVCAR-3; NCI five-dose screen): > 100000 nM
COc1c(CCC[P+](c2ccccc2)(c2ccccc2)c2ccccc2)cc2c(c1OC)OCO2.[I-] — TGI (HOP-92; SRB): -5.31 log M
CO[C@H]1/C=C\C=C(/C)C(=O)NC2=CC(=O)C(NCCN(C)C)=C(C[C@@H](C)C[C@H](OC)[C@H](O)[C@@H](C)/C=C(\C)[C@@H]1OC(N)=O)C2=O — MyBP-C level change (human cells; plate-normalised; concentration not given, hit retest; relative to: vehicle controls, SDs below control): 5.55 SD
Oc1ccc(C(c2ccc(O)cc2)(C(F)(F)F)C(F)(F)F)cc1 — G1 phase cells (HepG2 spheroids; Hoechst flow cytometry; 1 µM, 24 h): 74.7 ± 3.23%
O=C1CCP(=S)(c2ccccc2)CC1 — reduction of cell number (HCT-116; trypan blue; IC50, 72 h; relative to: untreated): 94%
COc1c(C)c2c(c(O)c1C/C=C(\C)CCC(=O)O)C(=O)OC2 — IC50 (OVCAR-3; cell proliferation): 407 nM
Nc1ncc(-c2nc(N3CCOCC3)nc(N3CCOCC3)n2)c(C(F)F)n1 — GI50 (AN3-CA; cell growth; 72 h): 42 nM
Cc1sc2c(c1C)C(c1ccc(Cl)cc1)=N[C@@H](CC(N)=O)c1nnc(C)n1-2 — viability (OCI-Ly1; 0.1 µM, 120 h): 46.2%
Oc1ccc(C2(c3ccc(O)cc3)c3ccccc3-c3ccccc32)cc1 — G2 phase cells (HepG2 spheroids; Hoechst flow cytometry; 0.10 µM, 96 h): 14.3 ± 7.3%
CN(C)NC(=O)CCC(=O)O — viability (OCI-Ly1; 0.1 µM, 120 h): 129%
COc1cc(C(=O)c2c[nH]c3cc(-c4cccc(O)c4)ccc23)cc(OC)c1OC — wound confluence (MDA-MB-231; scratch wound healing; 50 nM, 72 h): 100%
CN1CCN(C2(CNC3CCN(c4cccc(-c5cc6cc(F)ccc6[nH]5)c4)CC3)CCC2)CC1 — GI50 (UACC-257): 2190 nM
COC(=O)C[C@H](NC(=O)[C@H](C)NC(=O)[C@@H](NC(=O)OCc1ccccc1)C(C)C)C(=O)CF — cell death increase (BC-3 or BCBL-1; MTT; 40 µM, compound alone): > 10%
COCCCn1c(N)c(C(=O)NC2CCCC2)c2nc3ccccc3nc21 — viability (OCI-Ly1; 0.1 µM, 120 h): 194%
CC(c1ccccc1)(c1ccc(O)cc1)c1ccc(O)cc1 — G2 phase cells (HepG2 spheroids; Hoechst flow cytometry; 0.1 µM, 24 h): 18.3 ± 4.75%
COc1cc([C@@H]2c3cc4c(cc3C[C@H]3COC(=O)[C@@H]32)OCO4)cc(OC)c1OC — PCNA level (neuroblastoma M2 (+); western blot; IC50; relative to: untreated): decreased
O=C1N(Cc2ccccc2Cl)c2ccccc2C12NN=C(c1ccccc1)S2 (centres unmarked) — fold change (MDA-MB-468; gene expression array, refers to: MT1X mRNA; 10 µM, 12 h; relative to: untreated, down): 3.04
COc1ccc([C@H]2c3[nH]c4ccc(Cl)cc4c3CCN2C(=O)Oc2ccc(Cl)cc2)cc1 — inhibition (human dermal fibroblasts with PBMC; cytokine secretion, refers to: sVEGF; 0.001 µM, 48 h): 90%
O=C(O)[C@H]1O[C@@H](Oc2cc(-c3oc4cc(O)cc(O)c4c(=O)c3O)ccc2O)[C@H](O)[C@@H](O)[C@@H]1O — Jmax (MDCKII-UGT1A1/MRP2 cells; glucuronide efflux, substrate): 16 ± 5.53 pmol/mg/min
Cn1cc2cc(C(F)(F)c3nnc4ccc(-c5cnn(C6CC6)c5)nn34)c(F)cc2n1 — G0/G1 phase cells (MKN-45; PI flow cytometry; 200 nM, 24 h): ~90.6%
CC(C)N1CCC(NC2CCN(c3cccc(-c4cc5cc(F)ccc5[nH]4)c3)CC2)CC1 — GI50 (HOP-92): 1200 nM
C[C@]12CC[C@H](O)C[C@H]1CC[C@@H]1[C@@H]2CC[C@]2(C)[C@@H](c3ccc(=O)oc3)CC[C@]12O — mRNA level (MCF7; RT-qPCR, refers to: NRIP1; 20 nM, 48 h, unit not given, together with: estradiol; relative to: untreated): 1.76 and 1.66 and 2.07
CC[C@H](C)[C@H](NC(=O)CNC(=O)[C@@H](N)CCCCN)C(=O)N[C@@H](CC(C)C)C(=O)N[C@@H](CCCCN)C(=O)N[C@@H](CCCNC(=N)N)C(=O)N[C@@H](CCC(=O)O)C(=O)N[C@@H](CCCCN)C(=O)N[C@@H](CCCNC(=N)N)C(=O)N[C@@H](CC(C)C)C(=O)N[C@@H](CCCNC(=N)N)C(=O)N[C@@H](CCCNC(=N)N)C(=O)N[C@@H](CCCCN)C(=O)N[C@@H](CC(N)=O)C(=O)N[C@H](C(=O)N[C@@H](Cc1c[nH]cn1)C(=O)N[C@@H](Cc1c[nH]c2ccccc12)C(=O)N1CCC[C@H]1C(=O)N[C@@H](CCC(=O)O)C(=O)N[C@@H](CCC(=O)O)C(=O)NCC(=O)N[C@@H](CCCCN)C(=O)N[C@@H](CC(C)C)C(=O)N[C@@H](CCCNC(=N)N)C(=O)N[C@@H](CCC(=O)O)C(=O)N[C@@H](Cc1ccccc1)C(=O)N[C@@H](Cc1ccccc1)C(=O)N[C@@H](Cc1ccccc1)C(=O)N[C@@H](Cc1ccccc1)C(=O)N[C@@H](CCC(=O)O)C(=O)N[C@@H](CC(C)C)C(=O)N[C@@H](CC(=O)O)C(=O)N[C@@H](CCC(=O)O)C(=O)N[C@@H](C)C(=O)N[C@@H](CCC(=O)O)C(=O)N[C@@H](CCCNC(=N)N)C(=O)N[C@H](C(=O)N[C@@H](CC(N)=O)C(=O)N[C@H](C(=O)O)C(C)C)C(C)C)C(C)C — log2 fold change (HeLa (mitotic); protein phosphorylation, TMT phosphoproteomics, refers to: Ki-67 phosphosite; cell lysate; concentration not given, 15 min; relative to: treated over control): 2.77

Some of these lines once more:
CN[C@@H]1C[C@H]2O[C@@](C)([C@@H]1OC)n1c3ccccc3c3c4c(c5c6ccccc6n2c5c31)C(=O)NC4 — mRNA fold change (Caco-2; qRT-PCR, refers to: Bax; IC50; relative to: untreated): 7.65
O=C1CCP(c2ccccc2)CC1 — selectivity index (HCT-116; MTT; 72 h; relative to: IC50 HaCaT over IC50 HCT-116): 0.7
COc1ccc2c(c1)[nH]c1c(C)nccc12 — DNA methylation (DU-145; bisulfite pyrosequencing, refers to: RASSF1A promoter CpG site 14; 10 µM, 16 h): 90.3%
COc1cc(CCC[P+](c2ccccc2)(c2ccccc2)c2ccccc2)c(OC)c2c1OCO2.[I-] — TGI (SN12C; SRB): -4.98 log M
